Published values pooled from the literature.
Compare with care: the assays were run in different laboratories. ± marks the error that the study gave.
Read-out: enzyme activity
AKR1C1: Aldo-keto reductase family 1 member C1 (AKR1C1, Homo sapiens, UniProt Q04828)
UniProt Q04828, sequence (whole entry, looked up): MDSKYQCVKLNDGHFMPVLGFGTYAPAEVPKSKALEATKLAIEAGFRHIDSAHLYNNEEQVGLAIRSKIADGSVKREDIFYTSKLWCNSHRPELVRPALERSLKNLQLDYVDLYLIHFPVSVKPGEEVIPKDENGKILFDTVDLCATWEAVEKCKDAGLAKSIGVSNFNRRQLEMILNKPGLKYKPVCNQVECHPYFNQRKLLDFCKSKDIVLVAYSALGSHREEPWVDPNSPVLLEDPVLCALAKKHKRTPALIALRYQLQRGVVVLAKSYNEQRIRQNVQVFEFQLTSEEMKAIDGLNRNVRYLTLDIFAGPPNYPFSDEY
ache: Acetylcholinesterase (ache, Electrophorus electricus, UniProt O42275)
UniProt O42275, sequence (whole entry, looked up): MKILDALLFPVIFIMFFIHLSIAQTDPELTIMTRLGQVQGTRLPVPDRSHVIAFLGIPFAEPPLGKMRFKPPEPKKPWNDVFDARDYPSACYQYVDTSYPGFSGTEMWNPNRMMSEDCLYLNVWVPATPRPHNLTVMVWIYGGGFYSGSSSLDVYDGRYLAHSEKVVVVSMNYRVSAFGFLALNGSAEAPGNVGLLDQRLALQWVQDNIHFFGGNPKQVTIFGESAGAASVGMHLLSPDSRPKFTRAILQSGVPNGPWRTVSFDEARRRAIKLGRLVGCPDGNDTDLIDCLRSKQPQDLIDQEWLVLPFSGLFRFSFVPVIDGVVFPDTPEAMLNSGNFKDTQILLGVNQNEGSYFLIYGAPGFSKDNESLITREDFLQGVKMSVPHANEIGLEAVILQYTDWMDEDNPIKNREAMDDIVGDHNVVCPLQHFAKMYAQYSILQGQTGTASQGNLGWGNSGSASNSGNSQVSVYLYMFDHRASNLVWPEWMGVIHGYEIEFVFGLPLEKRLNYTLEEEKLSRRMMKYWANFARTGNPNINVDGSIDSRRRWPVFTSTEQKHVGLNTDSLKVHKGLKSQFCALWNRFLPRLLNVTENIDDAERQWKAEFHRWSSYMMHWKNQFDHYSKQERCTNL
UniProt P14780, sequence (whole entry, looked up): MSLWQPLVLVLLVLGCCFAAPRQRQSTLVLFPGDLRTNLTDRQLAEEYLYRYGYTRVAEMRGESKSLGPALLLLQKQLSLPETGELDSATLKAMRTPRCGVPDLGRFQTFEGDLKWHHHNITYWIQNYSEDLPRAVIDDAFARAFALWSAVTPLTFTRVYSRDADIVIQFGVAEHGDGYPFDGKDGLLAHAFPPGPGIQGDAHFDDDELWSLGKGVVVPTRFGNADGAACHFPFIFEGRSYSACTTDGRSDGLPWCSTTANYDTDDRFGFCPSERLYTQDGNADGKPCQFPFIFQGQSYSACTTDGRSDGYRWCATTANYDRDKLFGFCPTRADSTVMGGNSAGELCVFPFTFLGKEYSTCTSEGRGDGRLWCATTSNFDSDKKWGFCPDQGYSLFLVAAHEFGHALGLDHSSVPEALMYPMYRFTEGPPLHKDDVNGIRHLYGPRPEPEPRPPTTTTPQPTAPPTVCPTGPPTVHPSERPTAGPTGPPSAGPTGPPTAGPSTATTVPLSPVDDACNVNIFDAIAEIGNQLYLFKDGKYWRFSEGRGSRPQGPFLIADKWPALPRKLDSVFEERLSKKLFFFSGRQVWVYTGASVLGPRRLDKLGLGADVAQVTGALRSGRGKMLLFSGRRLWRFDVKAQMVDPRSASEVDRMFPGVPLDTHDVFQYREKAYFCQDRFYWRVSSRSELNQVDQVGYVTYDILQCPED
UniProt O75604, sequence (whole entry, looked up): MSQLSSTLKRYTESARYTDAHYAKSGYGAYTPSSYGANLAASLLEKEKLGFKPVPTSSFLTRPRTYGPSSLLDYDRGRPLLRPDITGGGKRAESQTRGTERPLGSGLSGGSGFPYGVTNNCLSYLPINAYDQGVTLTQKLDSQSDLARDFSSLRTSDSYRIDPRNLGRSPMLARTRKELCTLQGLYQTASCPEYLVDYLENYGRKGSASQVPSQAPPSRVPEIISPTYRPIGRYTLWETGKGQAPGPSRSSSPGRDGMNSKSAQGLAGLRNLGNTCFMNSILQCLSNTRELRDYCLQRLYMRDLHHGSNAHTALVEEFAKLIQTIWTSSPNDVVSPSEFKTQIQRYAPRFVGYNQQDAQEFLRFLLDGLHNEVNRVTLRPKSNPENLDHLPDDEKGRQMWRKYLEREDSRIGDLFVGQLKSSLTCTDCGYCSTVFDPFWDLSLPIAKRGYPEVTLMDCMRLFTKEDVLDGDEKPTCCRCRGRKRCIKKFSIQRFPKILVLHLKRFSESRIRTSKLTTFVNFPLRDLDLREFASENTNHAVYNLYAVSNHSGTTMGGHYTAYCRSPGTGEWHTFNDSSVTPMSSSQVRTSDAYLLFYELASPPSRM
UniProt P52895, sequence (whole entry, looked up): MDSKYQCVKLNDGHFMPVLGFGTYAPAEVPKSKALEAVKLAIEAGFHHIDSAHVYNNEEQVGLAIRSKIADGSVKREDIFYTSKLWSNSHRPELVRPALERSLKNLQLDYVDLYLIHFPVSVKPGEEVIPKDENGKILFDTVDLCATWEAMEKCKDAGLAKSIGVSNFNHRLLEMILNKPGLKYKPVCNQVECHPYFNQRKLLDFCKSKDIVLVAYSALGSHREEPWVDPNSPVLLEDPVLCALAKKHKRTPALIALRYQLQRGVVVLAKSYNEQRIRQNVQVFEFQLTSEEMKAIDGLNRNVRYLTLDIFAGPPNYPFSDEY
UniProt Q13131, sequence (whole entry, looked up): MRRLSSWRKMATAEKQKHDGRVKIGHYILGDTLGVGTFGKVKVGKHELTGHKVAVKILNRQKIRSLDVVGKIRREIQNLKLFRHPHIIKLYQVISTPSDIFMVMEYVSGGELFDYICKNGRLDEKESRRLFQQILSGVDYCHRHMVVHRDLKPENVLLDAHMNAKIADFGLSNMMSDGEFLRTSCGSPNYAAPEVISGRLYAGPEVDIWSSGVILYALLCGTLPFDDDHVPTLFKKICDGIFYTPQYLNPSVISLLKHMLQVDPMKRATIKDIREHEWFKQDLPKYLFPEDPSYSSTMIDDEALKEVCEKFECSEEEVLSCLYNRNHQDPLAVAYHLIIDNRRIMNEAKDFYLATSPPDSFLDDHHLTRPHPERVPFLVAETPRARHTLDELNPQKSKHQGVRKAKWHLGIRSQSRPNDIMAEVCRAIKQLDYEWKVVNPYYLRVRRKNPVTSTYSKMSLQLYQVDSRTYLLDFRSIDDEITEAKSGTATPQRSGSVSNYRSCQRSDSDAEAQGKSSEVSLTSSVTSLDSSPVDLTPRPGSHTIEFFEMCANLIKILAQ

SMILES | target | mode | method | concentration | pH | inhibition
O=C(O)/C=C/c1ccc(O)cc1 | alpha-amylase | – | DNS | 125 µg/mL | – | 59.2 ± 2.5%
C[C@@]12CC[C@@H]3c4cc(Cl)c(O)c(Cl)c4CC[C@H]3[C@@H]1CCC2=O | AKR1C1 | inhibitor | absorbance | 10 µM | pH 9 | 84.8%
C[C@@](O)(C(F)F)[C@H](NC(=O)c1ccc(C#CC#CC2CC2)cc1)C(=O)NO | Matrix metalloproteinase-9 (MMP9, Homo sapiens, UniProt P14780) | inhibitor | – | 30 µM | – | ≤ 30%
Cc1cccc(Nc2c3c(nc4ccccc24)CCC(C)C3)n1 (stereo not shown) | ache | inhibitor | Ellman | 50 µM | – | 33.6%
CC(=O)NC(Cc1ccc(Br)c(Cl)c1)C(=O)N[C@@H](C)C(=O)N1CCC[C@H]1C(=O)N1CCC[C@H]1C(=O)N[C@@H](CCC(=O)O)C(=O)N[C@@H](Cc1c[nH]cn1)C(=O)N[C@@H](CO)C(=O)N[C@H](C(=O)N[C@@H](C)C(N)=O)[C@@H](C)OP(=O)(O)O (stereo partly shown) | 5'-AMP-activated protein kinase catalytic subunit alpha-1 (PRKAA1, Homo sapiens, UniProt Q13131) | inhibitor | – | 10 µM | – | 0.16%
COc1ccc(Nc2c3c(nc4cc(C)ccc24)CCCC3)nc1 | ache | inhibitor | Ellman | 100 µM | – | 62.1%
C[C@@]12CC[C@@H]3c4ccc(O)c(Cl)c4CC[C@H]3[C@@H]1CCC2=O | Aldo-keto reductase family 1 member C2 (AKR1C2, Homo sapiens, UniProt P52895) | inhibitor | absorbance | 10 µM | pH 9 | 73.9%
Fc1ccc(Nc2c3c(nc4ccccc24)CCCC3)cc1 | ache | inhibitor | Ellman | 50 µM | – | 39%
C[C@]12CC[C@H]3[C@@H](CCC4=CC(=O)C=C[C@@]43F)[C@@H]1CCC2=O | AKR1C1 | inhibitor | absorbance | 100 µM | pH 9 | 25%
Cc1ccc(N2CC3CCC(C2)N3C)cc1C(=O)N[C@H](C)c1cc(-c2cnn(C)c2)nc2ccccc12 | Ubiquitin carboxyl-terminal hydrolase 2 (USP2, Homo sapiens, UniProt O75604) | – | – | concentration not given | – | no inhibition
